Published values of several laboratories.
Parts stem from different laboratories: compare values within a part only. Changes are numbered by the printed parent chain.

Set 1
Target: Sal-like protein 4, full length isoform A (SALL4, Homo sapiens, UniProt Q9UJQ4, residues 1-1053)
Chain of UniProt Q9UJQ4 (whole entry, looked up): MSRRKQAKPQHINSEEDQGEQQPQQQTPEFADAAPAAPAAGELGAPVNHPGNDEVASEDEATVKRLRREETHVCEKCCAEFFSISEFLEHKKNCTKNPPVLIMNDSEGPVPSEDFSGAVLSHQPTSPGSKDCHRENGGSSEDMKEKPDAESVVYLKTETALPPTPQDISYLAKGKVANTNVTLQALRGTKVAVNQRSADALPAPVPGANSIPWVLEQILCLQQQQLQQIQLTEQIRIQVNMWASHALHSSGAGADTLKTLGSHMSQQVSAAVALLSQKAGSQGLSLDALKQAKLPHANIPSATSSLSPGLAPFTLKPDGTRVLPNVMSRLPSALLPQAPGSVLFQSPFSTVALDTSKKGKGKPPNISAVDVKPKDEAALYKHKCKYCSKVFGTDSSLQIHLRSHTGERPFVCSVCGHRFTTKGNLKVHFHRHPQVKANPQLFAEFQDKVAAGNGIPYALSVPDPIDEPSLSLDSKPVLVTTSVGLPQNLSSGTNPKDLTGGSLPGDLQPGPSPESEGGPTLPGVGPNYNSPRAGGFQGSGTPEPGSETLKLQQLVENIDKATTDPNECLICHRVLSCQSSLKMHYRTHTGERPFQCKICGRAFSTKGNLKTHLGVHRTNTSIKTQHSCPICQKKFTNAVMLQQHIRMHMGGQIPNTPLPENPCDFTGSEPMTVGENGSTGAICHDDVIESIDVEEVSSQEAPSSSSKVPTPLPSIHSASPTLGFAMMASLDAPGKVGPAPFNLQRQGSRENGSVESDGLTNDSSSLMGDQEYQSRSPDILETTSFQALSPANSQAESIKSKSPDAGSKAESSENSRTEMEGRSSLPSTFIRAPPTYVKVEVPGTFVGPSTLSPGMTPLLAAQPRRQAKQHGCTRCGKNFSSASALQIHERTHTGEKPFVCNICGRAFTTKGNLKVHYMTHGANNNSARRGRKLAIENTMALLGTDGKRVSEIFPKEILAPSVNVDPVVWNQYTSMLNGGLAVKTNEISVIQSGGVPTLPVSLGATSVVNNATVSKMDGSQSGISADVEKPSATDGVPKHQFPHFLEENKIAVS
Method: universal PBM
Molecule type: double-stranded DNA, one strand shown
Matrix: in vitro
Tested at: 600 nM
Notes: 8-mer, flanks averaged, mean of replicates
Direction: higher = stronger binding
`ATCATAAG` gave an E-score of 0.361.
The E-score of `AGTGGGTG` is reported as -0.0552.
`CAACGGGG` has an E-score of -0.195.
The E-score of `ACACCTCA` is reported as -0.0428.
For `CCTAAGTA`, the E-score was 0.123.
`ATTTCACA` has an E-score of 0.311.
With `ACTCGTCC` the E-score was -0.179.
`CTGGCGAC` gave an E-score of -0.222.
The E-score of `ACTTCGGG` is reported as -0.16.
The E-score of `CTTGCAAG` is reported as -0.0297.
The E-score of `AGTAGTCG` is reported as -0.0872.
The E-score of `GCATGTCC` is reported as -0.164.
With `GCTACTGA` the E-score was -0.077.
`CGCCTAAG` gave an E-score of -0.242.
`ATCCGCGA` gave an E-score of -0.0688.

Set 2
Target: CCNB3, cyclin fold, Cln2 fusion (human)
Method: yeast growth competition, sequencing
Matrix: yeast
Notes: weak parent motif
Reference: not given
Direction: higher = stronger binding
Starting sequence: CDKN1A docking peptide (human); SKACRRLFGPVDS; partner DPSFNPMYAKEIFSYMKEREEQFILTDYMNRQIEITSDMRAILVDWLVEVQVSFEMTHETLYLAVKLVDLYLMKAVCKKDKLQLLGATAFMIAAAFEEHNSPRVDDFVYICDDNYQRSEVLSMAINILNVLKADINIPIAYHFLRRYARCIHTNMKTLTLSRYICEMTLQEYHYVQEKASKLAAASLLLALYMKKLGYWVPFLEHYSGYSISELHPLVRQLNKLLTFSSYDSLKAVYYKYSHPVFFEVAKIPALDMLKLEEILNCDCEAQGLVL
For `SKACRRLCGPVDS [F8C]`, “normalised enrichment score” read 0.0222.
`SKACRMLFGPVDS [R6M]`: “normalised enrichment score” 0.242.
`SKACRRCFGPVDS [L7C]` — result for “normalised enrichment score”: 0.283.
For `SKACRRLFGCVDS [P10C]`, “normalised enrichment score” read 0.333.
Under “normalised enrichment score”, `SKACRRLFGPVAS [D12A]` is recorded as 0.422.
For `SEACRRLFGPVDS [K2E]`, “normalised enrichment score” read 0.385.
Under “normalised enrichment score”, `SKACRQLFGPVDS [R6Q]` is recorded as 0.1.
For `SKACGRLFGPVDS [R5G]`, “normalised enrichment score” read 0.274.
For `SKACRRLFGHVDS [P10H]`, “normalised enrichment score” read 0.39.
Under “normalised enrichment score”, `SKACIRLFGPVDS [R5I]` is recorded as 0.196.
`SKACRRLFHPVDS [G9H]`: “normalised enrichment score” 0.499.
Under “normalised enrichment score”, `SKAHRRLFGPVDS [C4H]` is recorded as 0.535.
Under “normalised enrichment score”, `SKACRRPFGPVDS [L7P]` is recorded as 0.0613.
For `SKACRREFGPVDS [L7E]`, “normalised enrichment score” read -0.157.
`SDACRRLFGPVDS [K2D]`: “normalised enrichment score” 0.525.
`SKACRRLFGQVDS [P10Q]` — result for “normalised enrichment score”: 0.0699.
`SKACRRLFGPDDS [V11D]`: “normalised enrichment score” 0.722.

Set 3
Target: FOSL2, bZIP domain (human)
Method: DHFR protein complementation
Matrix: yeast
Notes: single substitutions, most at no-binding floor
Reference: wild-type JUN-FOS pair
Direction: higher = stronger binding
Starting sequence: JUN, bZIP domain (human); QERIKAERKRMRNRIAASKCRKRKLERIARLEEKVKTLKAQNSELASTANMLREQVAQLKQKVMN; partner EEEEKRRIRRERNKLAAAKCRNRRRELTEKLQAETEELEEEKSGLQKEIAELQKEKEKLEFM
`K34N` gave a binding fitness of -0.11 natural log.
`N42D` gave a binding fitness of -1.35 natural log.
The binding fitness of `T48V` is reported as 0.0766 natural log.
`K36L` gave a binding fitness of 0.0268 natural log.
The binding fitness of `A29L` is reported as -0.185 natural log.
`A49P` has a binding fitness of -1.25 natural log.
`T37L` has a binding fitness of 0.139 natural log.
`E44C` has a binding fitness of -0.0445 natural log.
The binding fitness of `L59R` is reported as -0.946 natural log.
`L31R` has a binding fitness of -0.621 natural log.
`M51W` has a binding fitness of 0.0285 natural log.
For `L45D`, the binding fitness was -1.17 natural log.
With `I28L` the binding fitness was 0.0468 natural log.
`V35K` has a binding fitness of 0.0383 natural log.
With `E54S` the binding fitness was -0.0692 natural log.
For `E32C`, the binding fitness was 0.242 natural log.

Other studies, line by line
For `PhoQ, residues 284 288 289 292 302 303 ALAMYF`, the fold induction was 0.72 (PhoP, residues 12 14 15 18 19 LHHVQ (Escherichia coli, UniProt P23836); Sort-seq, measured: YFP reporter; E. coli; PhoQ-PhoP variant library, together with: 10 µM Mg2+; reference: high Mg2+ state, higher = stronger signaling).

A few entries again (set 3):
`A49P` has a binding fitness of -1.25 natural log.
`T37L` has a binding fitness of 0.139 natural log.
`E44C` has a binding fitness of -0.0445 natural log.
The binding fitness of `L59R` is reported as -0.946 natural log.
